Assay results collected from several papers.
± marks the error that the study gave. In brackets after ≈: the same amount, converted by molar mass.
Organism: Pseudomonas aeruginosa

CCCC(=O)OCCSCCC(=O)N[C@H](CCN)C(=O)N[C@@H](CCN)C(=O)N[C@@H](CCN)C(=O)N[C@@H](CC(C)C)C(=O)N[C@H](Cc1ccccc1)C(=O)N[C@@H](CCN)C(=O)N[C@@H](CCN)C(=O)N[C@@H](CC(C)C)C(N)=O has an MBC of over 128 µM (PAO1; 24 h, 37 °C).
CN[C@H](CC(C)C)C(=O)N[C@H]1C(=O)N[C@@H](CC(N)=O)C(=O)N[C@H]2C(=O)N[C@H]3C(=O)N[C@H](C(=O)N[C@H](C(=O)O)c4cc(O)cc(O)c4-c4cc3ccc4O)[C@H](O)c3ccc(c(Cl)c3)Oc3cc2cc(c3O[C@@H]2O[C@H](CO)[C@@H](O)[C@H](O)[C@H]2O[C@H]2C[C@](C)(NCc3ccc(OCc4cn(CC(=O)N[C@H](C(=O)N[C@@H](CCN)C(=O)N[C@H]5CCNC(=O)[C@H]([C@@H](C)O)NC(=O)[C@H](CCN)NC(=O)[C@H](CCN)NC(=O)[C@H](CC(C)C)NC(=O)[C@@H](CC(C)C)NC(=O)[C@H](CCN)NC5=O)[C@@H](C)O)nn4)c(OC)c3)[C@H](O)[C@H](C)O2)Oc2ccc(cc2Cl)[C@H]1O gave an MIC of 24 µM (≈ 63.3 µg/mL) (broth microdilution; ATCC 10145, cation-adjusted Mueller-Hinton broth).
For O=CCNCCOn1c(=O)n(OCCNCCO)c(=O)n(OCCNCCOn2c(=O)n(OCCNCCO)c(=O)n(OCCNCCO)c2=O)c1=O, the MLC was 4 ± 1 µg/mL (≈ 5.2 µM) (broth microdilution).
NCc1ccc(S(=O)(=O)c2ccc3nc(N)sc3c2)cn1 gave an inhibition of 92% (swarming area, modified FAB agar; PA14-lux; 200 µM, 24 h; relative to: DMSO vehicle).
O=C(O)CN(CC(=O)O)CP(=O)(O)O — result for “fold MIC reduction”: 4 (IMP-7 producer; 32 µg/mL, with: meropenem; relative to: meropenem alone).
For CC(C)C[C@H](NC(=O)[C@H](CC(C)C)NC(=O)[C@H](CCCCN)NC(=O)[C@H](Cc1ccccc1)NC(=O)[C@@H](NC(=O)[C@H](CCCNC(=N)N)NC(=O)[C@@H](N)CCCCN)C(C)C)C(=O)N[C@@H](CCCCN)C(=O)N[C@@H](CCCNC(=N)N)C(=O)N[C@@H](Cc1ccc(O)cc1)C(=O)N[C@@H](Cc1c[nH]c2ccccc12)C(=O)N[C@@H](CCCNC(=N)N)C(=O)N[C@@H](CCC(N)=O)C(=O)N[C@@H](CC(C)C)C(=O)N[C@@H](CCCCN)C(=O)N[C@@H](CCCCN)C(=O)N1CCC[C@H]1C(=O)N[C@H](C(=O)N[C@@H](CCCNC(=N)N)C(=O)NCCOCCOCC(=O)O)C(C)C, “minimum concentration for visible aggregation” read at least 20 µM (Congo red staining; ATCC 10145; 4 h, 37 °C).
With CCC(=O)OCCSC[C@H](N)C(=O)N[C@H](CCN)C(=O)N[C@@H](CCN)C(=O)N[C@@H](CCN)C(=O)N[C@@H](CC(C)C)C(=O)N[C@H](Cc1ccccc1)C(=O)N[C@@H](CCN)C(=O)N[C@@H](CCN)C(=O)N[C@@H](CC(C)C)C(N)=O the MBC was over 128 µM (PAO1; 24 h, 37 °C).
CC[C@H](C)[C@H](NC(=O)[C@H](CCCCN)NC(=O)[C@H](CCCNC(=N)N)NC(=O)CNC(=O)[C@@H](NC(=O)CN)C(C)C)C(=O)NCC(=O)N[C@@H](Cc1ccccc1)C(=O)N[C@@H](CCCCN)C(=O)N[C@@H](CCCCN)C(=O)N[C@H](C(=O)N[C@@H](CC(C)C)C(=O)N[C@@H](Cc1ccccc1)C(=O)N[C@@H](Cc1ccccc1)C(=O)N[C@@H](Cc1ccccc1)C(=O)N[C@@H](CCCCN)C(=O)N[C@@H](CCCCN)C(=O)NCC(=O)N[C@@H](Cc1ccc(O)cc1)C(=O)N[C@@H](CCC(=O)O)C(=O)N[C@@H](CCCCN)C(=O)N[C@@H](C)C(=O)N[C@@H](CC(N)=O)C(=O)NCC(=O)NCC(=O)N[C@@H](Cc1ccccc1)C(=O)N[C@H](C(=O)N[C@@H](CCCCN)C(=O)N[C@@H](CCCCN)C(=O)N[C@@H](CCCCN)C(=O)NCC(=O)O)C(C)C)C(C)C gave an MBC of over 1020 µM (broth microdilution, agar subculture; ATCC 9721, CaMHB).
Nc1nc2ccc(Oc3cc[nH]c(=O)c3)cc2s1 has an inhibition of 21% (pyocyanin production; PA14-lux; 200 µM, 18 h; relative to: DMSO vehicle).
CC[C@H](C)[C@H](NC(=O)[C@H](CCCNC(=N)N)NC(=O)[C@H](CO)NC(=O)[C@H](Cc1ccc(O)cc1)NC(=O)[C@@H](NC(=O)[C@@H](NC(=O)[C@H](C)NC(=O)CNC(=O)[C@H](CCCCN)NC(=O)[C@H](CCCCN)NC(=O)CCNC(=O)CCCCCNC(=O)[C@H](CCCNC(=N)N)NC(=O)CCCCCNC(=O)[C@H](CCCNC(=N)N)NC(=O)[C@H](CCCNC(=N)N)NC(=O)CCCCCNC(=O)[C@H](CCCNC(=N)N)NC(=O)[C@H](CCCNC(=N)N)NC(=O)CCCCCNC(=O)[C@H](CCCNC(=N)N)NC(=O)[C@H](CCCNC(=N)N)NC(=O)CCCCCNC(=O)[C@@H](N)CCCNC(=N)N)C(C)C)[C@@H](C)O)C(=O)N[C@@H](CO)C(=O)NCC(=O)N[C@@H](CCC(N)=O)C(=O)N[C@@H](Cc1ccc(O)cc1)C(=O)N[C@@H](CCCCN)C(=O)O has an MBIC50 of 48 µM (biofilm formation, crystal violet staining; ATCC 27853, Mueller-Hinton broth; 24 h, 37 °C, polypropylene plate).
With CC(C)C[C@H](NC(=O)[C@H](Cc1ccccc1)NC(=O)[C@H](CCC(N)=O)NC(=O)[C@H](Cc1ccc(O)cc1)NC(=O)[C@H](CCCCN)NC(=O)[C@@H]1CCCN1C(=O)[C@H](CCCNC(=N)N)NC(=O)[C@H](CCC(N)=O)NC(=O)[C@H](Cc1c[nH]c2ccccc12)NC(=O)[C@H](CS)NC(=O)[C@H](Cc1c[nH]c2ccccc12)NC(=O)[C@H](Cc1ccccc1)NC(=O)[C@H](CCCNC(=N)N)NC(=O)[C@H](CCCCN)NC(=O)[C@H](CCCCN)NC(=O)[C@H](CCCCN)NC(=O)[C@@H](NC(=O)[C@@H](NC(=O)[C@H](CC(C)C)NC(=O)[C@@H](N)CO)C(C)C)[C@@H](C)O)C(=O)O the MBC was 8 µg/mL.
For Cn1cc(S(=O)(=O)c2ccc3nc(N)sc3c2)cn1, the inhibition was 5.51% (pyocyanin production; PA14-lux; 200 µM, 18 h; relative to: DMSO vehicle).
With COc1ccc(-c2[nH]c3ccccc3c2C[C@H]2NC(=O)[C@@H](CO)NC(=O)[C@@H](C(C)C)NC(=O)[C@H](Cc3ccccc3)NC(=O)[C@@H](C(C)C)NC(=O)[C@@H](C)NC(=O)[C@H](CO)NC2=O)c(OC)c1 the MIC90 was over 50 µM (broth dilution).
CCCC(=O)C#Cc1ccc(F)c(F)c1 gave a rhamnolipid production of 45% (10 µM, 24 h; relative to: untreated).
Nc1nc2ccc(Oc3ccc4nc(N)sc4c3)cc2s1 has an inhibition of 12.8% (pyocyanin production; PA14-lux; 200 µM, 18 h; relative to: DMSO vehicle).
The MIC90 of CC(C)[C@H]1NC(=O)[C@H](Cc2ccccc2)NC(=O)[C@@H](C(C)C)NC(=O)[C@@H](C)NC(=O)[C@H](CO)NC(=O)[C@@H](Cc2c(-c3ccc(-c4ccc5ccccc5c4)cc3)[nH]c3ccccc23)NC(=O)[C@@H](C)NC1=O is reported as over 50 µM (broth dilution).
For Nc1nc2ccc(S(=O)(=O)c3cn[nH]c3)cc2s1, the swarming inhibition was 25.7% (swarming area; PA14-lux; 200 µM, 24 h; relative to: DMSO).
For CN[C@H](CC(C)C)C(=O)N[C@H]1C(=O)N[C@@H](CC(N)=O)C(=O)N[C@H]2C(=O)N[C@H]3C(=O)N[C@H](C(=O)N[C@H](C(=O)N[C@@H](CCCNC(=N)N)C(N)=O)c4cc(O)cc(O)c4-c4cc3ccc4O)[C@H](O)c3ccc(c(Cl)c3)Oc3cc2cc(c3O[C@@H]2O[C@H](CO)[C@@H](O)[C@H](O)[C@H]2O[C@H]2C[C@](C)(NCc3ccc(OCc4cn(CC(=O)N[C@H](C(=O)N[C@@H](CCN)C(=O)N[C@H]5CCNC(=O)[C@H]([C@@H](C)O)NC(=O)[C@H](CCN)NC(=O)[C@H](CCN)NC(=O)[C@H](CC(C)C)NC(=O)[C@@H](CC(C)C)NC(=O)[C@H](CCN)NC5=O)[C@@H](C)O)nn4)c(OC)c3)[C@H](O)[C@H](C)O2)Oc2ccc(cc2Cl)[C@H]1O, the MIC was 6 µM (≈ 16.7 µg/mL) (broth microdilution; ATCC 25922, cation-adjusted Mueller-Hinton broth).
For CC(C)C[C@H](NC(=O)[C@H](CS)NC(=O)[C@H](CCCCN)NC(=O)CCNC(=O)CCCCCNC(=O)[C@H](CCCNC(=N)N)NC(=O)CCCCCNC(=O)[C@H](CCCNC(=N)N)NC(=O)[C@H](CCCNC(=N)N)NC(=O)CCCCCNC(=O)[C@H](CCCNC(=N)N)NC(=O)[C@H](CCCNC(=N)N)NC(=O)CCCCCNC(=O)[C@H](CCCNC(=N)N)NC(=O)[C@H](CCCNC(=N)N)NC(=O)CCCCCNC(=O)[C@@H](N)CCCNC(=N)N)C(=O)N[C@H](C(=O)N[C@@H](CCCCN)C(=O)N[C@@H](CO)C(=O)N[C@@H](Cc1ccc(O)cc1)C(=O)N[C@H](C(=O)N[C@@H](CO)C(=O)N[C@@H](CS)C(=O)N[C@@H](CCCCN)C(=O)O)[C@@H](C)O)[C@@H](C)O, “biofilm biomass reduction” read about 40% (crystal violet; ATCC 27853; 6 µM).
The inhibition of Nc1nc2ccc(Oc3ccncc3)cc2s1 is reported as 40% (swarming area, modified FAB agar; PA14-lux; 200 µM, 24 h; relative to: DMSO vehicle).
For CC(C)[C@H]1NC(=O)[C@H](Cc2ccccc2)NC(=O)[C@@H](C(C)C)NC(=O)[C@@H](C)NC(=O)[C@H](C)NC(=O)[C@@H](Cc2c(-c3ccc(-c4ccc5ccccc5c4)cc3)[nH]c3ccccc23)NC(=O)[C@@H](C)NC1=O, the MIC90 was over 50 µM (broth dilution).
For Nc1nc2ccc(S(=O)(=O)c3cn[nH]c3N)cc2s1, the inhibition was 87% (swarming area, modified FAB agar; PA14-lux; 200 µM, 24 h; relative to: DMSO vehicle).
CC(C)C[C@@H]1NC(=O)[C@@H](CC(C)C)NC(=O)[C@H](CCN)NC(=O)[C@@H](NC(=O)[C@H](CCN)NC(=O)[C@@H](NC(=O)CCCCN=[N+]=[N-])[C@@H](C)O)CCNC(=O)[C@H]([C@@H](C)O)NC(=O)[C@H](CCN)NC(=O)[C@H](CCN)NC1=O gave an MIC of 4 µM (≈ 4.22 µg/mL) (broth microdilution; ATCC 10145, cation-adjusted Mueller-Hinton broth).
With CC(C)C[C@H](NC(=O)[C@H](CCN)NC(=O)[C@H](CCN)NC(=O)[C@@H](Cc1ccccc1)NC(=O)[C@H](CC(C)C)NC(=O)[C@H](CCN)NC(=O)[C@H](CCN)NC(=O)[C@@H](CCN)NC(=O)CCSCCOC(=O)C(C)(C)C)C(N)=O the MBC was over 128 µM (PAO1; 24 h, 37 °C).
For CC(C)[C@H]1NC(=O)[C@H](Cc2ccccc2)NC(=O)[C@@H](C(C)C)NC(=O)[C@@H](C)NC(=O)[C@H](CO)NC(=O)[C@@H](Cc2c(-c3ccc(-c4ccc(-c5ccccc5)cc4)cc3)[nH]c3ccccc23)NC(=O)[C@@H](C)NC1=O, the MIC90 was over 50 µM (broth dilution).

A few entries again:
For CC(C)C[C@H](NC(=O)[C@H](CC(C)C)NC(=O)[C@H](CCCCN)NC(=O)[C@H](Cc1ccccc1)NC(=O)[C@@H](NC(=O)[C@H](CCCNC(=N)N)NC(=O)[C@@H](N)CCCCN)C(C)C)C(=O)N[C@@H](CCCCN)C(=O)N[C@@H](CCCNC(=N)N)C(=O)N[C@@H](Cc1ccc(O)cc1)C(=O)N[C@@H](Cc1c[nH]c2ccccc12)C(=O)N[C@@H](CCCNC(=N)N)C(=O)N[C@@H](CCC(N)=O)C(=O)N[C@@H](CC(C)C)C(=O)N[C@@H](CCCCN)C(=O)N[C@@H](CCCCN)C(=O)N1CCC[C@H]1C(=O)N[C@H](C(=O)N[C@@H](CCCNC(=N)N)C(=O)NCCOCCOCC(=O)O)C(C)C, “minimum concentration for visible aggregation” read at least 20 µM (Congo red staining; ATCC 10145; 4 h, 37 °C).
With CCC(=O)OCCSC[C@H](N)C(=O)N[C@H](CCN)C(=O)N[C@@H](CCN)C(=O)N[C@@H](CCN)C(=O)N[C@@H](CC(C)C)C(=O)N[C@H](Cc1ccccc1)C(=O)N[C@@H](CCN)C(=O)N[C@@H](CCN)C(=O)N[C@@H](CC(C)C)C(N)=O the MBC was over 128 µM (PAO1; 24 h, 37 °C).
CCCC(=O)C#Cc1ccc(F)c(F)c1 gave a rhamnolipid production of 45% (10 µM, 24 h; relative to: untreated).
